Experimental data from different studies.
Compare with care: the assays were run in different laboratories. Several values in a cell are separate wells, animals, samples, runs or records. Numbers after ± are the reported error.
B1: susB (Bacteroides thetaiotaomicron, UniProt G8JZS4); chain QQKLTSPDNNLVMTFQVDSKGAPTYELTYKNKVVIKPSTLGLELKKEDNTRTDFDWVDRRDLTKLDSKTNLYDGFEVKDTQTATFDETWQPVWGEEKEIRNHYNELAVTLYQPMNDRSIVIRFRLFNDGLGFRYEFPQQKSLNYFVIKEEHSQFGMNGDHIAFWIPGDYDTQEYDYTISRLSEIRGLMKEAITPNSSQTPFSQTGVQTALMMKTDDGLYINLHEAALVDYSCMHLNLDDKNMVFESWLTPDAKGDKGYMQTPCNTPWRTIIVSDDARNILASRITLNLNEPCKIADAASWVKPVKYIGVWWDMITGKGSWAYTDELTSVKLGETDYSKTKPNGKHSANTANVKRYIDFAAAHGFDAVLVEGWNEGWEDWFGNSKDYVFDFVTPYPDFDVKEIHRYAARKGIKMMMHHETSASVRNYERHMDKAYQFMADNGYNSVKSGYVGNIIPRGEHHYGQWMNNHYLYAVKKAADYKIMVNAHEATRPTGICRTYPNLIGNESARGTEYESFGGNKVYHTTILPFTRLVGGPMDYTPGIFETHCNKMNPANNSQVRSTIARQLALYVTMYSPLQMAADIPENYERFMDAFQFIKDVALDWDETNYLEAEPGEYITIARKAKDTDDWYVGCTAGENGHTSKLVFDFLTPGKQYIATVYADAKDADWKENPQAYTIKKGILTNKSKLNLHAANGGGYAISIKEVKDKSEAKGLKRL
B2: enzyme (Bacteroides thetaiotaomicron, UniProt Q8A947); chain MIKNIVFDFGGVIVDIDRDKAVQAFIKLGLADADTRLDKYHQTGIFQELEEGKLSADEFRKQLGDLCGRELTMEETKQAWLGFFNEVDLRKLDYILGLRKSYHVYLLSNTNPFVMSWACSPEFSSEGKPLNDYCDKLYLSYQLGHTKPAPEIFDFMIKDSHVIPSETLFVDDGSSNIHIGKELGFETFQPENGADWRQELTVILNS
Sequence of UniProt Q02880 (whole entry, looked up): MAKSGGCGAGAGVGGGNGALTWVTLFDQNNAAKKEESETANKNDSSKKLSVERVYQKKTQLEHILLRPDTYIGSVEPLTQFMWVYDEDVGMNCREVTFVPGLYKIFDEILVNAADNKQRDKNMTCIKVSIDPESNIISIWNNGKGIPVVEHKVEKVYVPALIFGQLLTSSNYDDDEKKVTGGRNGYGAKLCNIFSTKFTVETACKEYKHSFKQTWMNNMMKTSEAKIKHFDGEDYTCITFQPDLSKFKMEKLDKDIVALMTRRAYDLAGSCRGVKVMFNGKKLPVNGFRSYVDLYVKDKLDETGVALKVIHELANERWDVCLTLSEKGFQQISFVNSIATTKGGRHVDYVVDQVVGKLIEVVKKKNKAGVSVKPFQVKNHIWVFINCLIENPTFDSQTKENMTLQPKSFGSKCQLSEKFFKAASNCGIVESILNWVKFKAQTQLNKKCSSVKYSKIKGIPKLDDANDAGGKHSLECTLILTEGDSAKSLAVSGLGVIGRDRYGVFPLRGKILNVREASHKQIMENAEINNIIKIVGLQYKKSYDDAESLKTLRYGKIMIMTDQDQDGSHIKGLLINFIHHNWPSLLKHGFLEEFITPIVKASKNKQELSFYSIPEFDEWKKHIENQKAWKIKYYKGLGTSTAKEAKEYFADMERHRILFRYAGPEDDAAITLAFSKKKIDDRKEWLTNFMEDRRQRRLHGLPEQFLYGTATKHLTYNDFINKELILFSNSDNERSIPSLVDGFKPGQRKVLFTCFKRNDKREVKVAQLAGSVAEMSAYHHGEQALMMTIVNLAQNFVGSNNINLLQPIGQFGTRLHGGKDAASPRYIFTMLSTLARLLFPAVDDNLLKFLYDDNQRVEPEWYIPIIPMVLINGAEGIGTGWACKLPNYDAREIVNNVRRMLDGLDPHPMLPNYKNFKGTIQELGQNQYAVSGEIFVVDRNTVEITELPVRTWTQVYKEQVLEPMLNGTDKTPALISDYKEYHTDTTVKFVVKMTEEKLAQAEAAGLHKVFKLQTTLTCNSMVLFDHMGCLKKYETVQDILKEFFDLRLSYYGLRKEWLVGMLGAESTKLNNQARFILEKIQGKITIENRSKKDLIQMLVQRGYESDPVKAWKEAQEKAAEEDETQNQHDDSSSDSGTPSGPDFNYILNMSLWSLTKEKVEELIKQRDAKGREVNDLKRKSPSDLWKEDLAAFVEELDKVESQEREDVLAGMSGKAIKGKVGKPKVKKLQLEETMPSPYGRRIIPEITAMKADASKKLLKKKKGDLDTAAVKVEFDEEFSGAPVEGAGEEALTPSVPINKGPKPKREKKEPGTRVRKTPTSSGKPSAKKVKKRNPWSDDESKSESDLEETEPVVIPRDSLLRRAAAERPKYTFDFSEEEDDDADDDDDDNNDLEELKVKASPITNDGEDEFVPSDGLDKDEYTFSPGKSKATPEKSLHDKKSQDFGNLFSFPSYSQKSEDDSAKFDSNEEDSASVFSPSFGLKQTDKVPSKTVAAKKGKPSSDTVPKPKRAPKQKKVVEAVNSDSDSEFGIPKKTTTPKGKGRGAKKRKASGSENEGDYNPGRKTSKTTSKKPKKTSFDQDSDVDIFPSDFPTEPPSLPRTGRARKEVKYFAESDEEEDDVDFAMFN

Substance	tested on	test	test system	setting	how to read	endpoint	result
GluA1/TARP γ-8 fusion	GluA2/TARP γ-8 (x)	patch clamp	HEK293T	together with: philanthotoxin	reference: glutamate current, higher = greater efficacy	kainate efficacy	48.2%
COC(=O)Nc1c(N)nc(-c2nn(Cc3ccccc3F)c3ncc(F)cc23)nc1N	–	–	healthy male humans, plasma	oral, 1.25 mg single dose, phase I DDI study, alone	–	Cmax	37.2 ng/mL
N#CCC1CCN(c2nc(Nc3ccc(N4CCC(O)CC4)cc3)c3c(=O)[nH]ncc3n2)CC1	–	vs placebo, Olink multiplex	human, serum	20 mg, day 15, unit not given	reference: placebo	osteopontin level difference	-1.14
B1 (susB)	O=[N+]([O-])c1ccc(O[C@H]2O[C@H](CO)[C@@H](O)[C@H](O)[C@H]2O)cc1	steady-state kinetics	–	pH 6.6	–	kcat	23.9 ± 1.1 s⁻¹
COc1cc([C@@H]2c3cc4c(cc3[C@@H](O[C@@H]3O[C@@H]5CO[C@@H](C)O[C@H]5[C@H](O)[C@H]3O)[C@H]3COC(=O)[C@H]23)OCO4)cc(OC)c1O	DNA topoisomerase 2-beta (TOP2B, Homo sapiens, UniProt Q02880)	decatenation	–	100 µM, replicate 1	–	decatenated DNA	79.7% and 100%
enzyme (Bacteroides thetaiotaomicron, UniProt Q89YZ9)	O=[N+]([O-])c1ccc(O[C@H]2O[C@H](CO)[C@@H](O)[C@H](O)[C@H]2O)cc1	steady-state kinetics	–	pH 6.6	–	kcat/Km	552000 M⁻¹ s⁻¹
Fc1ccccc1Cc1nc(-c2nc(C(F)(F)F)n[nH]2)cn2ccnc12	–	–	healthy human subjects, both sexes	oral, 10 mg, fasted	–	subjects with irregular menstruation	0%
B2 (enzyme)	Nc1c(NC[C@H](O)[C@H](O)[C@H](O)COP(=O)(O)O)[nH]c(=O)[nH]c1=O	steady-state kinetics	–	pH 7.5, 25 °C	–	kcat/Km	160 M⁻¹ s⁻¹

For quick reference, copied from above:
Substance	tested on	test	test system	setting	how to read	endpoint	result
B1 (susB)	O=[N+]([O-])c1ccc(O[C@H]2O[C@H](CO)[C@@H](O)[C@H](O)[C@H]2O)cc1	steady-state kinetics	–	pH 6.6	–	kcat	23.9 ± 1.1 s⁻¹
